Published values gathered from unrelated publications.
A part holds a random share of what one study measured. Positions count from the first letter of the parent shown.

Study 1
Target: Ras GTPase-activating protein-binding protein 1, full length (G3BP1, Homo sapiens, UniProt Q13283)
UniProt Q13283, sequence (whole entry, looked up): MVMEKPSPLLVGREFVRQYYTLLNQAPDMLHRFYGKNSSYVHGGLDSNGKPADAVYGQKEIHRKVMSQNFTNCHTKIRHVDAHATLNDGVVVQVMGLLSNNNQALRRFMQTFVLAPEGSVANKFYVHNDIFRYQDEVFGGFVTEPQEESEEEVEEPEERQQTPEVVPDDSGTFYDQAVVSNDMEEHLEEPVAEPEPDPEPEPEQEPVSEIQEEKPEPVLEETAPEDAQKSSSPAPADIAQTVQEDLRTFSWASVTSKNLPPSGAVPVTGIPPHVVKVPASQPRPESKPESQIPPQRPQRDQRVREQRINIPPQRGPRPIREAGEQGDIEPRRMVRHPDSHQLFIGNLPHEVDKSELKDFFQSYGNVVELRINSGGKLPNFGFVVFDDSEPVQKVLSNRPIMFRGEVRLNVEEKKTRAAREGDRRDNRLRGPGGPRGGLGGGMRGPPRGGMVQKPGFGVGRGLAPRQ
Technique: RNA Bind-n-Seq
Molecule type: RNA
Sample: in vitro
Concentration: 200 nM
Notes: whole 134-nt RNA, ends assumed
Added: 150 mM LiCl
Reference: input library
Direction: higher = stronger binding
Library: 7-deaza-guanosine replaces G
| Sequence | log2 enrichment |
| --- | --- |
| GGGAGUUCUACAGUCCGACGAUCACCAUGCAGGUGGGCAUCUUUGGGAAGUGGGGCAAGGGGGGGAUAGGGAGGGGGGUAACACUUUAGGAACAGGUGGUCCCAGGUCGUUUCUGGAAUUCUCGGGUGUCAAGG | -0.247 |
| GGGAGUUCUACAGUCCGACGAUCCCUGUGCUACACAUCGUAUGUACCGAAUCGGGCCCCCCCGGGGCCCCCCCGGCCCCCCCGGAAAGUAUUAUGUUACGCCGUUCGGAUCUGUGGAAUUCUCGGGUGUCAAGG | 0.175 |
| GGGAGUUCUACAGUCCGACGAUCUCCUGUGCUACACAUCGUAUGUACCGAAUCGGGGUUUUUUUGGGGUGGGGUUUUUGGGGAAAGUAUUAUGUUACGCCGUUCGGAUCUGCAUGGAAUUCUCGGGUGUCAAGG | -0.744 |
| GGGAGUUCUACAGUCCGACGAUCACCAUGCAGGUGGGCAUCUUUGGGAAGUGGUGCAAGGGGGGGAUAGGGAGGGGGGUAACACUUUGGGAACAGGUGGUCCCAGGUCGUUUCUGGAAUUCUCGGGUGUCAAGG | 0.366 |
| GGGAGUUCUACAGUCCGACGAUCGCAGGAAGUAAAAACAAAUGGAAAUGCUUCGGAUAGUGGCAGGGGUGGGGGUUGCUAAGGAAAGGGUGGGAUGGGAGUGGGUAAAGAGUCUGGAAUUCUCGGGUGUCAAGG | -0.118 |
| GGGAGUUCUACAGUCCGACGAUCUGGGAGGGGGAUUUUGUUUAUUUUUUUAGCUCAUUUCCAGGGGUGGGAAUUUUUUUUUAAUAUGUGUCAUGAAUAAAGUUGUUUUUGAAAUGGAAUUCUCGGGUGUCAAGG | -0.44 |
| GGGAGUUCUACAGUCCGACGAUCAAGUCCUGUGCUACACAUCGUAUGUACCGAAUCGGUUUUGGGGUUUUGGGGUUUUGGAAAGUAUUAUGUUACGCCGUUCGGAUCUGCACUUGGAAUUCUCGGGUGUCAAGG | -0.0101 |
| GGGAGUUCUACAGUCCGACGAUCAGUCCUGUGCUACACAUCGUAUGUACCGAAUCGGGGUGGGGUUUUUUUGGGGAGGGGAAAGUAUUAUGUUACGCCGUUCGGAUCUGCACUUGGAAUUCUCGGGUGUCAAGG | 0.788 |

Study 2
Target: Histone acetyltransferase KAT6A, winged helix 1, GST fusion (KAT6A, Homo sapiens, UniProt Q92794, residues 1-85)
Technique: protein binding microarray
Molecule type: double-stranded DNA, one strand shown
Sample: in vitro
Concentration: not given
Notes: 8-mer, flanks averaged, mean of 2 arrays, mostly near background
Reference: not given
Direction: higher = stronger binding
Residues (chain): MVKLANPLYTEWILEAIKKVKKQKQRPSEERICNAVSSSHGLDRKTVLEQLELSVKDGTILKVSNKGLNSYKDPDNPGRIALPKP
| Sequence | E-score |
| --- | --- |
| ACGAGCCT | -0.0593 |
| GAGGAGCC | -0.0865 |
| ACATGCCT | -0.0167 |
| CGAGCGCG | 0.418 |
| CAGAAGCC | 0.113 |
| GCGTATAA | 0.174 |
| GGCAGCAC | -0.032 |
| GCCAGAGA | -0.0945 |
| AGCCTTCG | -0.089 |
| GGTAACTA | 0.0526 |
| CTATACCA | -0.129 |
| TCCCAAAA | -0.201 |
| ATGAACGA | -0.0425 |
| ACCCCATC | -0.093 |

Study 3
Target: ABI1, truncated, D143A, DHFR fusion (Arabidopsis thaliana)
Technique: DHFR PCA, deep sequencing
Sample: yeast
Notes: methotrexate growth selection, single substitutions
Added: (+)-ABA 0.11 µM
Reference: wild-type fitted maximum
Direction: higher = stronger binding
Starting sequence: PYL1, truncated, DHFR fusion (Arabidopsis thaliana); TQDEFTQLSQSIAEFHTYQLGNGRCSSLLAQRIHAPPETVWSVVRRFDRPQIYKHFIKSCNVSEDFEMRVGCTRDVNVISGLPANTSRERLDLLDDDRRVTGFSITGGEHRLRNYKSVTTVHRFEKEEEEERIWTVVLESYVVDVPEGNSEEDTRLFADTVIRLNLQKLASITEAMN; partner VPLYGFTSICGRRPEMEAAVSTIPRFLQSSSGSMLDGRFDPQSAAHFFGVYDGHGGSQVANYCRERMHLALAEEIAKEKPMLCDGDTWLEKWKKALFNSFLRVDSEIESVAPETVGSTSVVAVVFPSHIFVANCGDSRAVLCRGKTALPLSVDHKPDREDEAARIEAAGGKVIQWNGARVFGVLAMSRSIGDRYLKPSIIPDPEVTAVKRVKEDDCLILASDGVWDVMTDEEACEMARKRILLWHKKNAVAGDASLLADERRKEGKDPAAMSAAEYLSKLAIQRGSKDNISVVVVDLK
| Variant | relative binding score |
| --- | --- |
| A170R | 33.1% |
| V78E | -1.43% |
| K58A | 15% |
| Q31H | 5.94% |
| L164H | 15.5% |
| M176R | 12% |
| E125Y | 24.7% |
| E174F | -11.7% |
| S80E | 0.148% |
| I52M | 39.3% |
| H122T | -5.11% |
| V161Q | 37.7% |
| T6S | 42.6% |
| V78G | 15.3% |
| E89K | -1.47% |
| V118K | -0.738% |
| N22R | 40% |
| V143G | 4.03% |
| N22F | 21% |
| D153I | -6.68% |
| F56C | -8.61% |
| S87R | 62.5% |

Study 4
Target: Sal-like protein 4, full length isoform A (SALL4, Homo sapiens, UniProt Q9UJQ4, residues 1-1053)
UniProt Q9UJQ4, sequence (whole entry, looked up): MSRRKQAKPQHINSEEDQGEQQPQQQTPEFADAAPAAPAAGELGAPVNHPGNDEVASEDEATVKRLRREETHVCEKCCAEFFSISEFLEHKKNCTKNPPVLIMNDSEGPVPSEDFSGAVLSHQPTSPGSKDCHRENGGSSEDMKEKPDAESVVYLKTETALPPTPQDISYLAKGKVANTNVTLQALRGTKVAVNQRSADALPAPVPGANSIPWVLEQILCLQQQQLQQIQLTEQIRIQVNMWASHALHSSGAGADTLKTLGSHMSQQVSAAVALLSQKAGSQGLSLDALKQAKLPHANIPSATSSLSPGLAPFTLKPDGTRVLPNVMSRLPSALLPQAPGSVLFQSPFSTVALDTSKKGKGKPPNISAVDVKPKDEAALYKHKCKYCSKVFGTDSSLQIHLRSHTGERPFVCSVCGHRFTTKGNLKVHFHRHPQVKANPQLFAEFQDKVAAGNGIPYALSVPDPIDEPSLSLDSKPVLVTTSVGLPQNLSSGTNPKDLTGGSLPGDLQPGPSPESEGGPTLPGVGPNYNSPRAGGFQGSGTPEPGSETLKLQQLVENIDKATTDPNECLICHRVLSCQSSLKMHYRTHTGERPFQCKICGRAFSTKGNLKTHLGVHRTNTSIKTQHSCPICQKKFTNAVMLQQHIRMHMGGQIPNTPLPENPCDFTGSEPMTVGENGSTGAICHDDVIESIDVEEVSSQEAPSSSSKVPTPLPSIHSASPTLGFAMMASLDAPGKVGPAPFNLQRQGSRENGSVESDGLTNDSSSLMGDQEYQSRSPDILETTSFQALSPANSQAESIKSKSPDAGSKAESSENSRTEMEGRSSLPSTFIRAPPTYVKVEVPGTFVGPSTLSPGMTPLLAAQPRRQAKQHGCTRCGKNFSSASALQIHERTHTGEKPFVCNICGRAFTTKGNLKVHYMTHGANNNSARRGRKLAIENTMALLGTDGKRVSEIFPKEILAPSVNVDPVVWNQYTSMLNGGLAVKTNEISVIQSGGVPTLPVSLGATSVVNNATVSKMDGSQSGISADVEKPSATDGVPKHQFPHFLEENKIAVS
Technique: universal PBM
Molecule type: double-stranded DNA, one strand shown
Sample: in vitro
Concentration: 600 nM
Notes: 8-mer, flanks averaged, mean of replicates
Direction: higher = stronger binding
| Sequence | E-score |
| --- | --- |
| CAGTGTGC | -0.225 |
| CCCGATTA | -0.0504 |
| CATCATGA | 0.0635 |
| ACATTCCT | 0.109 |
| CGACCCGC | -0.329 |
| CCATTGGC | -0.261 |
| GGGGGCCA | -0.358 |
| ATGGTCCC | -0.287 |
| CTCGCTAC | -0.191 |
| ATAGAACC | 0.0712 |
| AACCGGTG | -0.229 |
| CCCATTGA | -0.0654 |
| GGTCACAA | -0.115 |
| AAAGCGTC | -0.104 |
| CACAGACC | -0.243 |
| AAACTACG | -0.0108 |
| CATATTGG | 0.208 |
| AAAGCCAT | 0.156 |
| CACCACCA | -0.175 |
| GTCTCCAC | -0.23 |
| AACTGGTA | -0.118 |
| TACCCGTA | -0.0751 |
| CACGAGAC | -0.205 |

Excerpt of the above (study 4):
| Sequence | E-score |
| --- | --- |
| CTCGCTAC | -0.191 |
| ATAGAACC | 0.0712 |
| AACCGGTG | -0.229 |
| CCCATTGA | -0.0654 |
| GGTCACAA | -0.115 |
| AAAGCGTC | -0.104 |
| CACAGACC | -0.243 |
